Published values of several laboratories.
Every numbered part comes from another study and shows a few of its results, in no order. Positions count from the first letter of the parent shown.

Sample 1 — mode: agonist
Target: Beta-1 adrenergic receptor (ADRB1, Homo sapiens, UniProt P08588)
UniProt P08588, sequence (whole entry, looked up): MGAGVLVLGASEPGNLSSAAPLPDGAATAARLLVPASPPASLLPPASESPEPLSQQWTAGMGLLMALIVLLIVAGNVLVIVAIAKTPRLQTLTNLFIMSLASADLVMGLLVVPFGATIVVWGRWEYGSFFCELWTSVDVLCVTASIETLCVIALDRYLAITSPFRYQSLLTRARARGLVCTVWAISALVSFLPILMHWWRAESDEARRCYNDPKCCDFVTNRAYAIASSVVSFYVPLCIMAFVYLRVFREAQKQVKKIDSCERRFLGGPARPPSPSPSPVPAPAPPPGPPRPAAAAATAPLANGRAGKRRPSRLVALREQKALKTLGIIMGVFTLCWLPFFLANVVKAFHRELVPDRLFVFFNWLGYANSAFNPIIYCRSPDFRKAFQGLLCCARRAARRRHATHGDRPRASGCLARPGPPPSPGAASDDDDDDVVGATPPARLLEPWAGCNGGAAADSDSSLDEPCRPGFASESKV
SMILES	Emax
Fc1ccc(N2CCNCC2)cc1	23.8%
Nc1c(Cl)cc(C(O)CNC2CCC(O)CC2)cc1Cl (stereo not shown)	95.7%
CNCC(O)c1ccc(O)c(OC)c1 (stereo not shown)	67%

Sample 2 — organism: Sarcocystis neurona; read-out: parasite activity; concentration: 10 µM; time: 96 h
SMILES	activity class
C[C@]12CC[C@H](O)CC1=CC[C@@H]1[C@@H]2CC[C@@]2(C)[C@H]1CC[C@]2(C)O	inactive
c1ccc2c(c1)Nc1ccccc1S2	inactive
FC(F)(F)c1cccc(N2CCNCC2)c1	inactive
CN1C(=O)COc2c(C(=O)NC3CN4CCC3CC4)cc(Cl)cc21 (stereo not shown)	inactive

Sample 3 — target: CCND3, cyclin fold, Cln2 fusion (human); technique: yeast growth competition, sequencing; matrix: yeast; setting: weak parent motif; reference: not given; reading: higher = stronger binding
Starting sequence: viral docking peptide; YKVKRRLVFGADD; partner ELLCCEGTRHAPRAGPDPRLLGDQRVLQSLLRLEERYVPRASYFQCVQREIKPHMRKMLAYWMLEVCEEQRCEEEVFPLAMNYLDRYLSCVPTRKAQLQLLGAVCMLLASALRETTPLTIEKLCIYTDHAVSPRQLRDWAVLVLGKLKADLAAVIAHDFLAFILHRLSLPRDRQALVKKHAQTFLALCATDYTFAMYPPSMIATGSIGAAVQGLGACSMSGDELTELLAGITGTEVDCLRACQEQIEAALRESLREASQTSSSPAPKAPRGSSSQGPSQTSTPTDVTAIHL
Variant	normalised enrichment score
YKVPRRLVFGADD [K4P]	0.0937
YKVKRRLVFGADA [D13A]	0.0421
YKVKRRQVFGADD [L7Q]	-0.0683
YKVKRRLGFGADD [V8G]	0.367
YKVKNRLVFGADD [R5N]	-0.288
YPVKRRLVFGADD [K2P]	0.426
YKVKRRLVAGADD [F9A]	-0.0341
YKVKRRLVFGFDD [A11F]	0.261

Other studies, line by line
Structure (SMILES)	cell line	assay	conditions	scale	endpoint	value
CN[C@@H]1C[C@H]2O[C@@](C)([C@@H]1OC)n1c3ccccc3c3c4c(c5c6ccccc6n2c5c31)C(=O)NC4	normal-adjacent epithelium patient-derived organoids sample G	CellTiter-Glo	1 µM	reference: DMSO	viability	1%

Some of these lines once more (sample 1):
SMILES	Emax
Fc1ccc(N2CCNCC2)cc1	23.8%
Nc1c(Cl)cc(C(O)CNC2CCC(O)CC2)cc1Cl (stereo not shown)	95.7%
